Assay results from different studies.
Compare with care: the assays were run in different laboratories.
Organism: Bacillus subtilis

Compound	assay	system	setting	MIC
CN[C@@H]1[C@H](O)[C@H](NC)[C@H]2O[C@]3(O)[C@H](O[C@@H]2[C@H]1O)O[C@H](C)C[C@@]3(O)CNCc1ccc(OC(F)(F)F)cc1	–	ATCC 23857	–	100 µg/mL
CC[C@@H](C)[C@@H](NC(=O)[C@@H](CCCCN)NC(=O)[C@H]1CCCN1C(=O)[C@H](NC(=O)[C@@H](CC(C)C)NC(=O)[C@@H](CCCCN)NC(=O)[C@@H](CC(C)C)NC(=O)[C@H](NC(=O)[C@@H](CO)NC(=O)CNC(=O)[C@@H](Cc1ccccc1)NC(=O)[C@H](N)Cc1ccccc1)C(C)C)[C@H](C)CC)C(=O)N[C@H](CC(C)C)C(N)=O	broth microdilution	–	–	6.25 µM
CC(C)C[C@@H]1NC(=O)[C@H](CCCCN)NC(=O)CSC[C@@H](C(=O)N[C@@H](CCCCN)C(N)=O)NC(=O)[C@H](CCCCN)NC(=O)[C@H](CC(C)C)NC(=O)[C@H](CC(C)C)NC(=O)[C@@H]2CSCC(=O)N[C@@H](CCCCN)C(=O)N[C@@H](CC(C)C)C(=O)N[C@@H](CCCCN)C(=O)N[C@@H](CCCCNC(=O)[C@H](CCCCN)NC1=O)C(=O)N[C@@H](CCCCN)C(=O)N[C@@H](CC(C)C)C(=O)N[C@@H](CC(C)C)C(=O)N2	–	BR 151	18 h	16 µg/mL
CC[C@H](C)[C@H](NC(=O)[C@H](CCCCN)NC(=O)[C@H](CCCNC(=N)N)NC(=O)[C@@H](NC(=O)[C@H](CC(C)C)NC(=O)[C@H](CCCCN)NC(=O)[C@H](CC(C)C)NC(=O)[C@@H](NC(=O)[C@H](CCCCN)NC(=O)CNC(=O)[C@H](Cc1ccccc1)NC(=O)[C@@H](N)Cc1ccccc1)C(C)C)[C@@H](C)CC)C(=O)N[C@@H](Cc1ccccc1)C(N)=O	broth microdilution	–	–	> 100 µM
c1ccc(CCNC2CCCc3c2[nH]c2ccc(C4CCCCC4)cc32)cc1 (centres unmarked)	microbial growth, broth dilution	ATCC6051	–	3 µg/mL
CC[C@H](C)[C@H](NC(=O)CNC(=O)[C@H](CCCCN)NC(=O)[C@H](C)NC(=O)[C@H](CCC(=O)O)NC(=O)[C@H](Cc1ccccc1)NC(=O)[C@H](CO)NC(=O)[C@H](CC(C)C)NC(=O)[C@@H](NC(=O)[C@H](CC(=O)O)NC(=O)[C@H](C)NC(=O)[C@@H](NC(=O)[C@@H](N)C(C)C)[C@@H](C)O)C(C)C)C(=O)N[C@@H](C)C(=O)N[C@H](C(=O)N[C@@H](CC(N)=O)C(=O)N[C@@H](Cc1c[nH]cn1)C(=O)N[C@@H](CO)C(=O)N[C@@H](C)C(=O)N[C@H]1CSSC[C@@H]2NC(=O)[C@H](C(C)C)NC(=O)CNC(=O)[C@H](CC(N)=O)NC(=O)[C@H](CCC(N)=O)NC(=O)[C@H](C)NC(=O)[C@H](CO)NC(=O)CNC(=O)CNC(=O)[C@H](CCCCN)NC(=O)[C@H](CCCCN)NC(=O)[C@H](CCCNC(=N)N)NC(=O)[C@H](CC(C)C)NC(=O)[C@H](C)NC(=O)[C@H]([C@@H](C)CC)NC(=O)[C@H](CSSC[C@@H](C(=O)N[C@@H](CCCNC(=N)N)C(=O)N[C@@H](CC(N)=O)C(=O)O)NC(=O)[C@H](C(C)C)NC2=O)NC(=O)[C@H](Cc2c[nH]cn2)NC(=O)[C@H](CC(C)C)NC(=O)[C@H](C)NC1=O)C(C)C	broth microdilution	KCTC 3068	16 h, 37 °C	> 100 µM
CC(C)C[C@H](NC(=O)[C@@H]1CSCC(=O)NCCCC[C@@H]2NC(=O)CSC[C@H](NC(=O)[C@H](CCCCN)NC2=O)C(=O)N[C@@H](CCCCN)C(=O)N[C@@H](CC(C)C)C(=O)N1)C(N)=O	–	BR 151	18 h	128 µg/mL
CC[C@H](C)[C@H](N)C1=N[C@H](C(=O)N[C@@H](CC(C)C)C(=O)N[C@H](CCC(=O)O)C(=O)N[C@H](C(=O)N[C@H]2CCCCNC(=O)[C@H](CC(N)=O)NC(=O)[C@@H](CC(=O)O)NC(=O)[C@H](Cc3c[nH]cn3)NC(=O)[C@@H](Cc3ccccc3)NC(=O)[C@H](Cc3ccccc3)NC(=O)[C@@H](CCCN)NC2=O)[C@@H](C)CC)CS1	–	168	18 h, 37 °C, with: ZnSO4 0.3 mM	32 µg/mL
CC[C@H](C)[C@H](NC(=O)CNC(=O)[C@H](CC(N)=O)NC(=O)[C@H](CCCNC(=N)N)NC(=O)[C@H](CS)NC(=O)[C@H](CCCNC(=N)N)NC(=O)CNC(=O)CNC(=O)[C@H](CCCCN)NC(=O)[C@H](Cc1ccc(O)cc1)NC(=O)[C@H](CCCNC(=N)N)NC(=O)[C@H](CCCCN)NC(=O)[C@@H](NC(=O)[C@H](CC(C)C)NC(=O)[C@H](CS)NC(=O)[C@H](Cc1c[nH]cn1)NC(=O)[C@H](C)NC(=O)[C@H](C)NC(=O)[C@H](CS)NC(=O)[C@H](C)NC(=O)[C@H](CO)NC(=O)[C@H](Cc1c[nH]cn1)NC(=O)[C@H](CC(N)=O)NC(=O)[C@H](CC(C)C)NC(=O)[C@H](CO)NC(=O)CNC(=O)[C@H](Cc1c[nH]c2ccccc12)NC(=O)[C@@H]1CCCN1C(=O)[C@@H](NC(=O)[C@H](CO)NC(=O)[C@H](C)NC(=O)[C@H](CO)NC(=O)[C@H](CC(C)C)NC(=O)[C@H](CC(C)C)NC(=O)[C@H](CC(=O)O)NC(=O)[C@H](CS)NC(=O)[C@@H](NC(=O)[C@H](C)N)[C@@H](C)O)[C@@H](C)O)[C@@H](C)O)C(=O)N[C@@H](CS)C(=O)N[C@@H](CCCNC(=N)N)C(=O)N[C@@H](CS)C(=O)N[C@@H](CCCNC(=N)N)C(=O)N[C@@H](CCCNC(=N)N)C(N)=O	–	–	–	7 µg/mL
CC[C@H](C)[C@H](NC(=O)[C@H](CCCCN)NC(=O)[C@H](CC(N)=O)NC(=O)[C@H](Cc1c[nH]c2ccccc12)NC(=O)[C@H](Cc1ccccc1)NC(=O)[C@H](CCCCN)NC(=O)[C@H](CCCCNC(=N)N)NC(=O)[C@H](CC(C)C)NC(=O)[C@H](Cc1c[nH]c2ccccc12)NC(=O)[C@H](CCCCN)NC(=O)[C@H](CCCCNC(=N)N)NC(=O)[C@H](CC(C)C)NC(=O)CNC(C)=O)C(=O)N[C@@H](CCCCN)C(=O)N[C@@H](CCCCNC(=N)N)C(N)=O	broth microdilution	ATCC 6633	–	3.12 µM
Cc1cc(C)c(SCC2OC(OC3C(N)CC(N)C(OC4OC(CN)C(O)CC4N)C3O)C(O)C(N)C2O)c(C)c1 (centres unmarked)	–	168	–	18.8 µg/mL
CC(C)C[C@H](NC(=O)[C@@H]1CSCC(=O)N[C@@H](CCCCN)C(=O)N[C@@H](CC(C)C)C(=O)N[C@@H](CC(C)C)C(=O)N[C@H]2CCCCNC(=O)[C@H](CC(C)C)NC(=O)[C@H](CC(C)C)NC(=O)[C@H](CCCCN)NC(=O)CSC[C@H](NC(=O)[C@H](CC(C)C)NC(=O)[C@H](CC(C)C)NC(=O)[C@H](CCCCN)NC2=O)C(=O)N[C@@H](CCCCN)C(=O)N[C@@H](CCCCN)C(=O)N[C@@H](CCCCN)C(=O)N1)C(N)=O	–	BR 151	18 h	16 µg/mL
CC[C@H](C)[C@H](NC(=O)[C@@H](Cc1ccccc1)NC)C(=O)N[C@@H](CO)C(=O)N[C@H](CCC(N)=O)C(=O)N[C@@H](C(=O)N[C@H](C(=O)N[C@@H](CO)C(=O)N[C@H]1C(=O)N[C@@H](C)C(=O)N[C@@H](C2CCCCC2)C(=O)N[C@@H]([C@@H](C)CC)C(=O)O[C@H]1C)[C@@H](C)CC)[C@@H](C)CC	broth microdilution	ATCC 6051, Mueller-Hinton broth	16 h, 37 °C	0.125 µg/mL
CC(C)C[C@H](NC(=O)[C@@H]1CSCC(=O)N[C@@H](CCCCN)C(=O)N[C@@H](CC(C)C)C(=O)N[C@@H](CCCCN)C(=O)NCCCC[C@@H]2NC(=O)[C@H](CCCCN)NC(=O)[C@H](CC(C)C)NC(=O)[C@H](CCCCN)NC(=O)CSC[C@H](NC(=O)[C@H](CC(C)C)NC(=O)[C@H](CC(C)C)NC(=O)[C@H](CCCCN)NC2=O)C(=O)N[C@@H](CCCCN)C(=O)N[C@@H](CC(C)C)C(=O)N[C@@H](CCCCN)C(=O)N1)C(N)=O	–	BR 151	18 h	32 µg/mL
CN1C(=O)[C@@H]2NC(=O)[C@@H]3NC(=O)[C@@H](c4ccc(O)cc4)NC(=O)[C@H](NC(=O)C(NCc4ccc(B(O)O)cc4)c4ccc(O)cc4)Cc4c[nH]c5cc(ccc45)-c4cc3cc(c4O)Oc3ccc(cc3)C[C@H]1C(=O)N[C@@H](C(=O)O)c1ccc(O)c(c1)Oc1ccc2cc1 (some centres unmarked)	–	168, Mueller-Hinton broth	–	1 µg/mL
N=C(N)NCCC[C@@H]1NC(=O)[C@H](CCCNC(=N)N)NC(=O)[C@H](CCCNC(=N)N)NC(=O)[C@H](CCCNC(=N)N)NC(=O)[C@H](Cc2c[nH]c3ccccc23)NC(=O)[C@H](CCCNC(=N)N)NC(=O)[C@H](CCCNC(=N)N)NC(=O)[C@@H](N)CCCn2cc(nn2)C[C@@H](C(N)=O)NC1=O	–	CMCC 63501	24 h, 37 °C	31.2 µg/mL
CN1C(=O)[C@@H]2NC(=O)[C@@H]3NC(=O)[C@@H](c4ccc(O)cc4)NC(=O)[C@H](NC(=O)C(NCc4ccsc4)c4ccc(O)cc4)Cc4c[nH]c5cc(ccc45)-c4cc3cc(c4O)Oc3ccc(cc3)C[C@H]1C(=O)N[C@@H](C(=O)O)c1ccc(O)c(c1)Oc1ccc2cc1 (some centres unmarked)	–	168, Mueller-Hinton broth	–	1 µg/mL
CC(C)C[C@H](NC(=O)[C@@H]1CSCC(=O)N[C@@H](CCCCN)C(=O)N[C@@H](CC(C)C)C(=O)N[C@@H](CC(C)C)C(=O)NCCCC[C@@H]2NC(=O)[C@H](CC(C)C)NC(=O)[C@H](CC(C)C)NC(=O)[C@H](CCCCN)NC(=O)CSC[C@H](NC(=O)[C@H](CC(C)C)NC(=O)[C@H](CC(C)C)NC(=O)[C@H](CCCCN)NC2=O)C(=O)N[C@@H](CCCCN)C(=O)N[C@@H](CCCCN)C(=O)N[C@@H](CCCCN)C(=O)N1)C(N)=O	–	BR 151	18 h	2 µg/mL
CC[C@H](C)[C@H](NC(=O)[C@H](CCCN)NC(=O)[C@H](CC(N)=O)NC(=O)[C@H](CC(C)C)NC(=O)[C@H](Cc1ccccc1)NC(=O)[C@H](CCCN)NC(=O)[C@H](CCCCNC(=N)N)NC(=O)[C@H](CC(C)C)NC(=O)[C@H](CC(C)C)NC(=O)[C@H](CCCN)NC(=O)[C@H](CCCCNC(=N)N)NC(=O)[C@H](CC(C)C)NC(=O)CNC(C)=O)C(=O)N[C@@H](CCCN)C(=O)N[C@@H](CCCCNC(=N)N)C(N)=O	broth microdilution	ATCC 6633	–	3.12 µM
CN(C)CCCNCCCNC(=O)[C@@H]1NC(=O)[C@@H]2Cc3ccc(cc3)Oc3cc4cc(c3O)-c3ccc5c(c[nH]c5c3)C[C@@H](NC(=O)C(N)c3ccc(O)cc3)C(=O)N[C@H](c3ccc(O)cc3)C(=O)N[C@H]4C(=O)N[C@@H](C(=O)N2C)c2ccc(cc2)Oc2cc1ccc2O (some centres unmarked)	–	168, Mueller-Hinton broth	–	8 µg/mL

Some of these lines once more:
Compound	assay	system	setting	MIC
CC(C)C[C@H](NC(=O)[C@@H]1CSCC(=O)NCCCC[C@@H]2NC(=O)CSC[C@H](NC(=O)[C@H](CCCCN)NC2=O)C(=O)N[C@@H](CCCCN)C(=O)N[C@@H](CC(C)C)C(=O)N1)C(N)=O	–	BR 151	18 h	128 µg/mL
CN1C(=O)[C@@H]2NC(=O)[C@@H]3NC(=O)[C@@H](c4ccc(O)cc4)NC(=O)[C@H](NC(=O)C(NCc4ccc(B(O)O)cc4)c4ccc(O)cc4)Cc4c[nH]c5cc(ccc45)-c4cc3cc(c4O)Oc3ccc(cc3)C[C@H]1C(=O)N[C@@H](C(=O)O)c1ccc(O)c(c1)Oc1ccc2cc1 (some centres unmarked)	–	168, Mueller-Hinton broth	–	1 µg/mL
